Assay results from different studies.
Each numbered part is a random draw from the data of one study; scales do not carry over between parts.

Study 1
Target: POU domain, class 6, transcription factor 1, POU and homeodomain (POU6F1, Homo sapiens, UniProt Q14863, residues 311-611)
Method: protein-binding microarray
Molecule type: hairpin DNA
Sample: in vitro
Concentration: not given
Setting: whole hairpin DNA, median over replicate spots
Baseline: not given
Reading: higher = stronger binding
Constant ends, left off below: GAGGCC … GGCCTCACACTCTT
Residues (chain): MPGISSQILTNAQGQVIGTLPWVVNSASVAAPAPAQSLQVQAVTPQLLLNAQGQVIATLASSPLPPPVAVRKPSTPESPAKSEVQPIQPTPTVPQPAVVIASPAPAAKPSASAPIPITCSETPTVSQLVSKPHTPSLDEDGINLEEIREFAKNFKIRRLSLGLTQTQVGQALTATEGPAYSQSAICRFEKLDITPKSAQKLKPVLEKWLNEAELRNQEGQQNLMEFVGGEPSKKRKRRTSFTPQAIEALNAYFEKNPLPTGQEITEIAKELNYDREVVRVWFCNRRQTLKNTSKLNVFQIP
With `ATAGTGAGGTGCCTCCTGGCACCTCACTAT (5mC at 33)` the median fluorescence was 374 a.u.
`ATAATGAGCGGCCTCCTGGCCGCTCATTAT (5mC at 15)` gave a median fluorescence of 2640 a.u.
For `ATAATTAGCTGCCTCCTGGCAGCTAATTAT (5mC at 15)`, the median fluorescence was 3820 a.u.
For `ATAAGGAGGTGCCTCCTGGCACCTCCTTAT (5mC at 32)`, the median fluorescence was 425 a.u.
`ATAATTTGGTGCCTCCTGGCACCAAATTAT` has a median fluorescence of 607 a.u.
With `ATAGTTAGGTGCCTCCTGGCACCTAACTAT` the median fluorescence was 370 a.u.
`CGAATGAGGTGCCTCCTGGCACCTCATTCG (5mC at 35)` gave a median fluorescence of 380 a.u.
With `ATGATTAGGTGCCTCCTGGCACCTAATCAT` the median fluorescence was 482 a.u.
With `ATATTGAGGTGCCTCCTGGCACCTCAATAT` the median fluorescence was 384 a.u.
`ATAACGAGGTGCCTCCTGGCACCTCGTTAT (5mC at 11 31)` has a median fluorescence of 453 a.u.
With `ATTATTAGGTGCCTCCTGGCACCTAATAAT` the median fluorescence was 579 a.u.
With `ATAATTCGGTGCCTCCTGGCACCGAATTAT` the median fluorescence was 525 a.u.
The median fluorescence of `ATAATCGGGTGCCTCCTGGCACCCGATTAT (5mC at 12 30)` is reported as 461 a.u.
For `ATAATTAGGTGCCTCCTGGCACCTAATTAT (5mC at 28)`, the median fluorescence was 2010 a.u.

Study 2
Target: Histone acetyltransferase KAT6A, winged helix 1, GST fusion (KAT6A, Homo sapiens, UniProt Q92794, residues 1-85)
Method: protein binding microarray
Molecule type: double-stranded DNA, one strand shown
Sample: in vitro
Concentration: not given
Setting: 8-mer, flanks averaged, mean of 2 arrays, mostly near background
Baseline: not given
Reading: higher = stronger binding
Residues (chain): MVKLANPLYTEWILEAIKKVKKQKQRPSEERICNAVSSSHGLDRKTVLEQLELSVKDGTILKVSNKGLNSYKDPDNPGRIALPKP
With `GGGCCTCA` the E-score was 0.0779.
`GAGCGCGA` gave an E-score of 0.29.
With `AACAATGT` the E-score was -0.192.
With `GCGGTGCC` the E-score was 0.332.
For `AAGCCGCT`, the E-score was 0.332.
`TACTACAA` gave an E-score of 0.0106.
For `CACGACTG`, the E-score was 0.0949.
With `GTAAGCCA` the E-score was -0.14.
`ACTGCCCT` has an E-score of -0.0127.
`CAAGCGAC` has an E-score of 0.216.
With `CGTCCCAA` the E-score was -0.199.
With `AGTGATGC` the E-score was -0.08.
`GGCAAGAA` has an E-score of -0.112.
For `ATGGGTTC`, the E-score was -0.185.
The E-score of `CCTCTTAG` is reported as -0.0471.
`CATCAACG` has an E-score of -0.128.
`TCAGCAAA` has an E-score of -0.21.
With `AAACGCAA` the E-score was 0.0433.

Study 3
Target: Phosphate system positive regulatory protein PHO4, full length, GST-tagged (PHO4, Saccharomyces cerevisiae, UniProt P07270, residues 1-312)
Method: competition protein-binding microarray
Molecule type: double-stranded DNA, one strand shown
Sample: in vitro
Concentration: 2 µM
Setting: whole 60-bp probe, lowest competitor level
With: Cbf1 competitor, 0.05 µM
Reading: higher = stronger binding
Residues (chain): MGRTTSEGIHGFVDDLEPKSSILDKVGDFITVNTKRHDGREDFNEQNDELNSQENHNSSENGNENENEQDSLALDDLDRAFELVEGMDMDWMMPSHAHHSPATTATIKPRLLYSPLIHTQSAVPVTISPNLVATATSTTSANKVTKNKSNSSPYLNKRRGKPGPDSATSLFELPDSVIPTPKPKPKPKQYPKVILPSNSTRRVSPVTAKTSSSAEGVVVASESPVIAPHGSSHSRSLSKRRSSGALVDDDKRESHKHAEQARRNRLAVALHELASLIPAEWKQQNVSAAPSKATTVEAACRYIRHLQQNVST
For `CTAACGAAGGTTTGCCATGTGGGTGACAAGCCAAGTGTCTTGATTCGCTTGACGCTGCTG`, the fluorescence intensity was 10000 a.u.
`CTTTCCCGATCTTGTTCTGTGGGTGTAGCACATTTGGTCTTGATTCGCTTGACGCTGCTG` has a fluorescence intensity of 4820 a.u.
The fluorescence intensity of `CTAACGAAGGTTTGCACCGTGGGTGACAAGCCAAGTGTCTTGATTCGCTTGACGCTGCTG` is reported as 8420 a.u.
`CATCTTATTTACGAACTCGTGATGGTTTTGTAAAATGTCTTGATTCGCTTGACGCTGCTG` has a fluorescence intensity of 9050 a.u.
With `TCCAGGGGGATACTACACGTGTAAGGGTTGAGTATCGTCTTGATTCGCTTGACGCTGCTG` the fluorescence intensity was 16200 a.u.
The fluorescence intensity of `CTAACGAAGGTTTGTTTAGTGGGTGACAAGCCAAGTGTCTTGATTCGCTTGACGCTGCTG` is reported as 3680 a.u.
`ATTTGACAGCATTTTCACGTGCAAACTGGAAGGAATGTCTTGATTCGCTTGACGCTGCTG` gave a fluorescence intensity of 14500 a.u.
`CCTATGTATTACCATCACGTGGGTAGGGAAGACTACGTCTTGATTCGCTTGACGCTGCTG` has a fluorescence intensity of 19700 a.u.
`TATCAAAAGTACCAACACGGGGAAAGAGAGCCATCCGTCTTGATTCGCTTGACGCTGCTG` has a fluorescence intensity of 7880 a.u.
With `GTCTTGTCTCATTGATCCGTGGGTGTCCCCACTTCAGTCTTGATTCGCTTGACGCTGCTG` the fluorescence intensity was 5910 a.u.
`GGATGGGACACCAACAACGTGCAAAACACCGAAGTGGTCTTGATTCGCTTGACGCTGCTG` gave a fluorescence intensity of 14200 a.u.
`AATGCGGCCCAAAAGCACGTGTGGAAAAAAAGTATGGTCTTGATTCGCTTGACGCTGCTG` gave a fluorescence intensity of 17300 a.u.
`GAGCCGTCCCGCAATCACCTGTAATGGCCAGTTCCCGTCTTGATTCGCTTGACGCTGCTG` gave a fluorescence intensity of 2800 a.u.
`CGTCCTAGTGATTGTCTCGTGGGTGCCATGAGGAAGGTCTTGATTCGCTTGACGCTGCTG` gave a fluorescence intensity of 12300 a.u.
`CGGGGTTAAGTTTGCGACGTGGGTGGCTTGCAGCAGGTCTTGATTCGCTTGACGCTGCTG` has a fluorescence intensity of 6400 a.u.
`CTTTCCCGATCTTGTCACGTGACTTTAGCACATTTGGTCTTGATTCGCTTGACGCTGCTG` has a fluorescence intensity of 14100 a.u.

Study 4
Target: Ras GTPase-activating protein-binding protein 1, full length (G3BP1, Homo sapiens, UniProt Q13283)
UniProt Q13283, sequence (whole entry, looked up): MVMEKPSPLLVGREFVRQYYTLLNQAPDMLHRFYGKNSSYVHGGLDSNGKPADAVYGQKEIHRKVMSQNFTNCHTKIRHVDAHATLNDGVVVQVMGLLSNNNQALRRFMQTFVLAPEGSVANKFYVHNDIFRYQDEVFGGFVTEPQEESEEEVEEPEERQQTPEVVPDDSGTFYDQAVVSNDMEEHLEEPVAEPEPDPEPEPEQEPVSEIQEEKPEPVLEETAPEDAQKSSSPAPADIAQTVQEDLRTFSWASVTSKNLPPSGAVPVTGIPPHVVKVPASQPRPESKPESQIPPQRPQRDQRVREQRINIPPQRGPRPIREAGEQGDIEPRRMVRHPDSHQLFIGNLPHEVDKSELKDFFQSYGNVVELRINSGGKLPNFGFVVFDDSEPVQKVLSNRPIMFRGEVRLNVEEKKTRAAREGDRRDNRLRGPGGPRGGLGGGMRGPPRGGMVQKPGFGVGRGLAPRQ
Method: RNA Bind-n-Seq
Molecule type: RNA
Sample: in vitro
Concentration: 200 nM
Setting: whole 134-nt RNA, ends assumed
With: 150 mM KCl
Baseline: input library
Reading: higher = stronger binding
For `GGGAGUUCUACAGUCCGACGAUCAGUCCUGUGCUACACAUCGUAUGUACCGAAUCGGGGUUUUUGGUUUUUGGGUUUUUGGAAAGUAUUAUGUUACGCCGUUCGGAUCUGCACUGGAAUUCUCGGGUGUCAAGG`, the log2 enrichment was -0.859.
The log2 enrichment of `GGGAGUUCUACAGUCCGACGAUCCCUCAAGUCCUGUGCUACACAUCGUAUGUACCGAAUCGGGGAGGAGGGAGGGAAAGUAUUAUGUUACGCCGUUCGGAUCUGCACUUCCAGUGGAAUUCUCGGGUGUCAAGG` is reported as 1.16.
With `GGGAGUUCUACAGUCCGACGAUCUCAAGUCCUGUGCUACACAUCGUAUGUACCGAAUCGGGAAAAAGGGUGGGUGGGAAAGUAUUAUGUUACGCCGUUCGGAUCUGCACUUCCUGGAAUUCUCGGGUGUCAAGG` the log2 enrichment was 0.862.
`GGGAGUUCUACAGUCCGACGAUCCCUGUGCUACACAUCGUAUGUACCGAAUCAAAUUUUUUUAAACCCCCCCAAACCCCCAAAAAAGUAUUAUGUUACGCCGUUCGGAUCUGCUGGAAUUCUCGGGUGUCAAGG` has a log2 enrichment of -0.0529.
For `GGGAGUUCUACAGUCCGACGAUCUCGGACGCCGCCAACCUGCACGAGUUCCACGCGGACCUGCGCUCAUGCUUUGCACCCCAGCACAUGGCCAUGCUGUGUAGCCCCAUCCUCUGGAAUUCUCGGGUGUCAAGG`, the log2 enrichment was 0.761.
`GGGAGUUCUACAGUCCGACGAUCACCAUGCAGGUGGGCAUCUUUGGGAAGUGGGGCAAGGGGAAAAUAGGGAGGGGGGUAACACUUUGGGAACAGGUGGUCCCAGGUCGUUUCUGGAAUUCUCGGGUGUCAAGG` gave a log2 enrichment of 0.99.
For `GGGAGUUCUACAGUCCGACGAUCCUGUGCUACACAUCGUAUGUACCGAAUCGGGUUUUUUUGGGGUUUUUUUGGGGUUUUUUUGGAAAGUAUUAUGUUACGCCGUUCGGAUCUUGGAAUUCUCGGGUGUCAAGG`, the log2 enrichment was -0.728.
`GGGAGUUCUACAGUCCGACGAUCUUCUGGUCUGCUCACCAGAGGUUCUUCAAAUACUUAUGCAUAGCAUCCAAAGUUAAAAGGGUUGUGCAACUAGCUCGAGAGGAAAUCAAGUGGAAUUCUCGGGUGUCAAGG` has a log2 enrichment of -1.7.

For quick reference, copied from above (study 3):
The fluorescence intensity of `CTAACGAAGGTTTGCACCGTGGGTGACAAGCCAAGTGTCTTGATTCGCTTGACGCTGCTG` is reported as 8420 a.u.
`CATCTTATTTACGAACTCGTGATGGTTTTGTAAAATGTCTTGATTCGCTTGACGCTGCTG` has a fluorescence intensity of 9050 a.u.
With `TCCAGGGGGATACTACACGTGTAAGGGTTGAGTATCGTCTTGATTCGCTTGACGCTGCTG` the fluorescence intensity was 16200 a.u.
The fluorescence intensity of `CTAACGAAGGTTTGTTTAGTGGGTGACAAGCCAAGTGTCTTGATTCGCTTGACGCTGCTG` is reported as 3680 a.u.
`ATTTGACAGCATTTTCACGTGCAAACTGGAAGGAATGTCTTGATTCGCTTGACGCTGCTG` gave a fluorescence intensity of 14500 a.u.
`CCTATGTATTACCATCACGTGGGTAGGGAAGACTACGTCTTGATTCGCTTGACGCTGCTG` has a fluorescence intensity of 19700 a.u.
`TATCAAAAGTACCAACACGGGGAAAGAGAGCCATCCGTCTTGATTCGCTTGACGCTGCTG` has a fluorescence intensity of 7880 a.u.
